# Results collected from several papers.
# A part holds a random share of what one study measured.

# Set 1 — technique: RNAcompete; molecule type: RNA; sample: in vitro; tested at: 20 nM; notes: 7-mer, probes averaged, single round; relative to: mean of 7-mers; direction: higher = stronger binding
# Target: PABPC1L2, full length, GST fusion (mouse, UniProt A0ABA7IW68)
# Residues (chain): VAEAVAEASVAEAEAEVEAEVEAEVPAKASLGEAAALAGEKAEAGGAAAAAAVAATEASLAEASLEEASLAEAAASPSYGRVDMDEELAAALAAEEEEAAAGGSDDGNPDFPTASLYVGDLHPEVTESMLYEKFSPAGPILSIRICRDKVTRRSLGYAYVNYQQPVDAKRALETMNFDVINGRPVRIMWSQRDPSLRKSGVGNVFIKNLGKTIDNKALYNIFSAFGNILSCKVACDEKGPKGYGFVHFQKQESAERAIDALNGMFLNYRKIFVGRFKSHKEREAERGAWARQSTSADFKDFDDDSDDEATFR
Sequence,7-mer Z-score
GCUCCGC,-0.385
CCUGGUC,-0.374
CUGUCAG,-0.322
CUUGCUU,-0.44
CGCGAGU,-0.414
UCUCUAC,-0.307
AAUUGGG,0.541
UUCAUAG,-0.266

# Set 2 — read-out: enzyme activity; mode: inhibitor; tested at: 20 µM
# Target: Replicase polyprotein 1ab, polymerase (rep, Severe acute respiratory syndrome coronavirus 2, UniProt P0DTD1)
Compound,inhibition [%]
CCC[C@@H]1CC(=O)N([C@@H](CC)C(N)=O)C1,-10.5
COc1ccc(C(=O)c2ccc(C)cc2)c(O)c1,5.71
COc1cc(C[C@H]2c3cc(OC)c(OC)cc3CCN2C)c(Oc2cc3c(cc2OC)-c2c(OC)c(OC)cc4c2[C@H](C3)N(C)CC4)cc1OC,1.76
O=c1cc(-c2ccc(O)c(O)c2)oc2cc(O)cc(O)c12,100
CCCN[C@H]1CCc2nc(N)sc2C1,-1.26
O=C(CCCCCCC(=O)Nc1ccccc1)NO,-4.25
Cc1nn(C)c2nc(NNC(=O)Nc3cc(Cl)nc(Cl)c3)cc(C(C)C)c12,3.17
CC(NC(C)(C)C)C(=O)c1cccc(Cl)c1 (stereo not shown),3.52
CCCCCC(O)CCCC(=O)O (stereo not shown),-2.7
Nc1ncnc(Nc2ccc(Cl)cc2)n1,2.08
C[C@H](CCC(=O)O)[C@H]1CC[C@H]2[C@@H]3[C@H](O)C[C@@H]4C[C@H](O)CC[C@]4(C)[C@H]3CC[C@]12C,-1.66
COc1cc(Br)c(S(=O)(=O)Nc2ccc(C(F)(F)F)c(O[C@@H]3CCN(C)C3)c2)cc1OC,3.96
CC1=CC(=O)c2ccccc2C1=O,10.3
C[C@H](NCc1ccc(OCc2cccc(F)c2)cc1)C(N)=O,-16
Cc1cc(I)ccc1Nc1c(C(=O)NOCC2CC2)cc(F)c(F)c1F,5.21
Cc1ccc(C(=O)Nc2cccc(C(F)(F)F)c2)cc1Nc1nc(-c2cccnc2)nc2c1cnn2C,-12.3
CCn1c2ccccc2c2cc(CNC)ccc21,-7.41
COc1cc2c(cc1OC)-c1c/c(=N\c3c(C)cc(C)cc3C)n(C)c(=O)n1CC2,1.52
NC[C@H]1O[C@H](O[C@H]2[C@H](O)[C@@H](O[C@H]3O[C@H](CO)[C@@H](O)[C@H](N)[C@H]3O)[C@H](N)C[C@@H]2N)[C@H](O)[C@@H](O)[C@@H]1O,15.8
CC1(C)N=C(N)N=C(N)N1OCCCOc1cc(Cl)c(Cl)cc1Cl,2.28
CCOC(=O)c1ccc(N(C)c2csc(-c3ccccc3)n2)cc1,1.47
Cc1ccc2c(Cl)cc(Cl)c(O)c2n1,-1.58
C=CCN1C[C@H](C)N([C@H](c2ccc(C(=O)N(CC)CC)cc2)c2cccc(OC)c2)C[C@H]1C,2.13
CC(C)C[C@H](CN)CC(=O)O,-7.98
O=C(/C=C/c1cccc(S(=O)(=O)Nc2ccccc2)c1)NO,-7.1

# Set 3 — technique: RNA Bind-n-Seq; molecule type: RNA; sample: in vitro; tested at: not given; notes: RNA with constant flanks, ends assumed; relative to: input RNA pool; direction: higher = stronger binding
# Target: RING finger protein unkempt homolog, zinc fingers 1-6, GST-SBP tag (UNK, Homo sapiens, UniProt Q9C0B0, residues 30-357)
# Shared flanks, not repeated: GGGAGUUCUACAGUCCGACGAUC … CAACAGAGGAUUGAGCAUCA
# Residues (chain): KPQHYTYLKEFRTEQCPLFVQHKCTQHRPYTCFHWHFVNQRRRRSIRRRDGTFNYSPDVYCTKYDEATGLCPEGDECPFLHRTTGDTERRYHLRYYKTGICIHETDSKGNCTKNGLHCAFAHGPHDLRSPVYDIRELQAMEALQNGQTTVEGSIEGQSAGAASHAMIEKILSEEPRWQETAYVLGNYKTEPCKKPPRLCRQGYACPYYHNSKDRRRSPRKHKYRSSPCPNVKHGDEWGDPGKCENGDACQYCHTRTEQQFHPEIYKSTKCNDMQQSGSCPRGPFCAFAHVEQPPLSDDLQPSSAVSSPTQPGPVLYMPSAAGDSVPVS
Sequence,bound/input enrichment [ratio]
AGACGACGGGAAUAUCAGUUAUCUGACUCUACCAAAUACUAUCUGAAUGACUUGGACCGUGCCGCCGACCCUUCCUAUCUGCCUACACAACAAGACGUGCUUAGAGUUCGAGUCCCCACU,0.208
UCUGUUCGAAGAUUGGACCCAGAAUACUGGAAGACUAUACUGAGUUGUAUAUAUGUUUUUACCGUAUUUGGAUUUACAUCUUUCAUUAUGGUUAUAGUCCAUGAGCGAGUGCCUGACAUG,0.193
UCUUGUUCCUCCAGCCUAAGUGCUCUGAGCCUGGAUGAGCCAUUUAUACAGAAAGAUGCCGAAUUAAGAAUCAUGCCUCCAGUUCAGGAAAACGACAAUGGGAAUGAAACUGAAUCAGAA,0.132
CAUGUAGUUUGUUUUUAAUUUCAAGCAAAAUCUUACUGUACUUGAAUGUGCCCUGUUUUGUCCGCACACCUAGACUUGCUGUAACUGUACUCAUGUCCCAGUAUGUACGUUCUUUCUAUG,7.25
AGCAGUCAGCCCGCGCGCCGGCCGGCUCCGUUAUGGCGACCCGCAGCCCUGGCGUCGUGAUCCGUGAUGAUGAACCAGGUUAUGACCUUGAUUUAUUUUGCAUACCUAAUCAUUAUGCUG,0.0995
ACCUUUUCAUUUUUAUUUUUUCUUUUCUCAACCAUUACGGUUUAUCUUUUUUUAAUGCAGACCGUUAAAAUUUCACUGCCAGGUUUCUUCUGCCCACCCAAAAGAUCCAGUCUAUAAUUA,2.55
CAGAUUGGGAAAAUGAGGUACGUUAGUGUUCGCGAUUUUAAAGGCAAAGUGCUAAUUGAUAUCCGAGAAUAUUGGAUGGAUCCUGAAGGUGAAAUGAAACCAGGAAGAAAAGGUAUUUCU,0.151
AAUUCAAUGGUUGAGGGUUCAGAACUCAAAAAGGUUCGCUCCAACUCUAGAAUUUAUCACCGGUACUUUUUACUGGAUGCUGACAUGCAGAGCCUAAGGUGGGAGCCAUCUAAGAAGGAU,0.325

# Set 4 — technique: RNA Bind-n-Seq; molecule type: RNA; sample: in vitro; tested at: 1 µM; notes: whole 134-nt RNA, ends assumed; together with: 150 mM KCl; relative to: input library; direction: higher = stronger binding
# Target: Ras GTPase-activating protein-binding protein 1, C-terminal RGG region (G3BP1, Homo sapiens, UniProt Q13283)
# UniProt Q13283, sequence (whole entry, looked up): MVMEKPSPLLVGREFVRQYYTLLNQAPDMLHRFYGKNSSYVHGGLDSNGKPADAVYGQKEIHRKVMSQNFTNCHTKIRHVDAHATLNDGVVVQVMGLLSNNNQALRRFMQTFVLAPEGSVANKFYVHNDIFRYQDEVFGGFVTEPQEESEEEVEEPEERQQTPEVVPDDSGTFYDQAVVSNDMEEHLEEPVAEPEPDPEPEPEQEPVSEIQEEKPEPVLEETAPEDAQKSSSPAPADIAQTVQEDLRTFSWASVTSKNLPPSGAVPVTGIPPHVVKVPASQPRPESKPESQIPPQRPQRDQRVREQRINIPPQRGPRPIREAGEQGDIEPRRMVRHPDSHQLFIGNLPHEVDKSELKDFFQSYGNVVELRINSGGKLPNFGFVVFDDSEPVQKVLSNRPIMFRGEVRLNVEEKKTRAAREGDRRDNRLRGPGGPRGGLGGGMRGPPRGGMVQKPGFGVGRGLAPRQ
# Shared flanks, not repeated: GGGAGUUCUACAGUCCGACGAUC … UGGAAUUCUCGGGUGUCAAGG
Sequence,log2 enrichment
CACAGACAACACGCACCCACACAGACAAAAAGGGAAGGGGUUGGGAUGGGGACAGGGUGCACAGCAGGGCGGGGUAGGACCCCAGCCCCU,-0.307
UUGGGUCCAGACUGCGCCACAGCCUCUCGGGAGACGUGGGCCCUCGGAACCUUUUUAGUGCCGGACUCCGGGCCGCAGGCAGUCCCGCGG,-2.33
UGGAUUAGAGAGAAAUUGAAUUUUUUCUUACUUGAACUCCUACUAAAAAGUGAACUAAAUAUUUUAUUGUAGUAAUGGCAUAGAGGAGCC,-1.45
AAGUCCUGUGCUACACAUCGUAUGUACCGAAUCGGGGCCCCGGCCCCGGGCCCCGGGAAAGUAUUAUGUUACGCCGUUCGGAUCUGCACU,-2.07
UCAAGUCCUGUGCUACACAUCGUAUGUACCGAAUCGGGAAGGAAGGGGAAGGGGAAAGUAUUAUGUUACGCCGUUCGGAUCUGCACUUCC,1.14
CUGUGCUACACAUCGUAUGUACCGAAUCGGGGAAAAAAAGGGGAAAAAGGGGUUUUUGGGGAAAGUAUUAUGUUACGCCGUUCGGAUCUG,0.84
CAAGCCAAGGAAAUGGUGUUAGAGUUAAUUCGUGAUCAAGGCGGUUUCAGAGAAGUUCGGAAUGAGUAUGGGUCAAGAAUAGGAGGAAAU,-2.15
AGUCCUGUGCUACACAUCGUAUGUACCGAAUCGGGAAAAAAAGGGAAAGGGAAAGGGAAAGUAUUAUGUUACGCCGUUCGGAUCUGCACU,0.105

# Set 5 — cell line: HEK-293T/ACE2; tested at: 10 µM; time: 16 h; relative to: vehicle
Compound,viability [%]
CCC1(C)CC(=O)NC1=O (stereo not shown),98.8
O=C(O)c1ccc(-n2nc(-c3ccccc3O)nc2-c2ccccc2O)cc1,91
Cc1c(-c2ccccc2)oc2c(C(=O)OCCN3CCCCC3)cccc2c1=O,101

# Set 6 — read-out: enzyme activity; mode: inhibitor; notes: without DTT
# Target: Replicase polyprotein 1ab, main protease (rep, Severe acute respiratory syndrome coronavirus 2, UniProt P0DTD1)
Structure (SMILES),IC50
COc1ncc(-c2ccc3nccc(-c4ccnnc4)c3c2)cc1NS(=O)(=O)c1ccc(F)cc1F,> 20000 nM
CC(C)(C)c1ccc(S(=O)(=O)/C=C/C#N)cc1,800 nM
Cc1ccc(S(=O)(=O)N[C@@H](Cc2ccccc2)C(=O)CCl)cc1,1400 nM
